Published values of several laboratories.
A part holds a random share of what one study measured.

Series 1 — method: RNA Bind-n-Seq; form: RNA; sample: in vitro; tested at: not given; relative to: input RNA pool; direction: higher = stronger binding
Target: RING finger protein unkempt homolog, zinc fingers 1-6, GST-SBP tag (UNK, Homo sapiens, UniProt Q9C0B0, residues 30-357)
UniProt Q9C0B0, sequence (30-357, looked up): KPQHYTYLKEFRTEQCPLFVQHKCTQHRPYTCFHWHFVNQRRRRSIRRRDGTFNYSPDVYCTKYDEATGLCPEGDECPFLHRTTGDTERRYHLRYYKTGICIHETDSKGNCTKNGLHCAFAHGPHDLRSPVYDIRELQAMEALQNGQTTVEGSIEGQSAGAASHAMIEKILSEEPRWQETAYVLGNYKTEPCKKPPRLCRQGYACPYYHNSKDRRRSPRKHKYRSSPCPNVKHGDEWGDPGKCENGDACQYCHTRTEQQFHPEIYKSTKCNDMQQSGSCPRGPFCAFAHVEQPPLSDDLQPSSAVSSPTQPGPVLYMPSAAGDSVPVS
Setting: RNA with constant flanks, human and mouse sites, ends assumed
Constant ends, left off below: GGGAGUUCUACAGUCCGACGAUC … CAACAGAGGAUUGAGCAUCA
| Strand | bound/input enrichment |
| --- | --- |
| GAAUUGGGUGACCACGUGACCAACUUGCGCAAGAUGGGAGCGCCCGAAUCUGGCUUGGCGGAAUAUCUCUUUGACAAGCACACCCUGGGAGACAGUGAUAAUGAAAGCUAAGCCUCGGGC | 0.108 ratio |
| GAUCUUGGUGGGCACGAGCAAGCACGUCGCGUUUGGAAAAAUUAUCUCCCAGCAAUUAAUGGGAUUGUCUUUCUGGUGGACUGUGCAGAUCAUUCUCGCCUCGUGGAAUCCAAAGUUGAG | 0.107 ratio |
| UGAGUACACAUGGGUGCUGGUGUGGGACAGGAGCAGAUCUUGGUGGAGUGGGUCUACACUUGAGAUUUGUACUCGUUUGAGAGGCUGGGCAAUACUCAAUGCACUUUGGCAUUUGCAUGG | 0.312 ratio |
| CUAUGCCUAACAGAGCCCCAGUACAACUAUUUUGCAGAAUGGCUGUUACCCUAGAAUUACUAUAGCACAUAUUGAGAUAUAGUUGUACUCCCUAGUAGAUAGGAACUGACCCCAACAAUA | 4.25 ratio |
| CAGUACAUGCAUGAUUCUUUUUCAGCUUUACUAUAGUUCAUGACCUGGACUUUCUGUACUCUUGGAAGCUGGGCUCCUUAAAGGAGGCCUCUAGUGAACACCUUUAUCUCCAUGUCCCUC | 0.583 ratio |
| CUCCCCGCCGCCGGCUUCCUGUACUGGGUCGGCGCGGGCACCGUGGCCUACCUAGCCCUGCGUAUUUCGUACUCGCUCUUCACGGCCCUCCGGGUCUGGGGAGUGGGGAAUGAGGCGGGG | 0.106 ratio |
| AAACGCAUCCGCUACCAUGGCAGAGGUCGCUUUGGGAUCAUGGAGAAGGUUUAUUGCCAUUAUUUUGUGAAGUUGGUGGAAGGGCCCCCACCUCCACCUGAGCCACCAAAGACGGCAGUU | 0.166 ratio |
| GGAGCAGCUGUGCUGCAGAAAAUGCUUCUGGAAGAUGAGCUGCAGGAUGCAGUGCUGCUCCUUUUUGCAAACAAACAGGAUCUGCCAAACGCUAUGGCCAUCAGUGAGAUGACAGACAAG | 0.0981 ratio |
| AGAGGAACCGUGCAGGCCUUAGCGUGAGUGAUCACUUUAGAUCUUGGGAACCUGGUGGCCAUACUCCUUCAGGUGGAUCAACAGGCACACGACAUGGGAAAGAAGACCAAGAGGACAGCC | 0.259 ratio |
| AGCAAGUUUUACAGCUUUAAUGCUCUGGCUUUCUUUACUUUCUCAUGAUUACAGCUUUGUAUGUUACUCUUAUUUAACAGGACCUCUGUUGUAUUGAUUUCUUCUGUAUCUUCCUUUUGA | 0.286 ratio |
| GGAUGAAUGAGCAGAUAAAUAUUGAUGUCAGCAUCCUUGAACCAUAUCAAAGUGAGCAGUGUUUGGCUACUGCUUCUAUUUGAAAUGGUGCUGUGUUUUGGUUGUGGUCUGAAGCUUUGA | 0.388 ratio |

Series 2 — method: RNA Bind-n-Seq; form: RNA; sample: in vitro; tested at: 200 nM; setting: whole 134-nt RNA, ends assumed; together with: 150 mM KCl; relative to: input library; direction: higher = stronger binding
Target: Fragile X messenger ribonucleoprotein 1, C-terminal low-complexity region (Fmr1, Mus musculus, UniProt P35922)
Constant ends, left off below: GGGAGUUCUACAGUCCGACGAUC … UGGAAUUCUCGGGUGUCAAGG
| Strand | log2 enrichment |
| --- | --- |
| UCCUGUGCUACACAUCGUAUGUACCGAAUCAAAUUUUUUUAAACCCCCCCAAAUUUAAAAAAGUAUUAUGUUACGCCGUUCGGAUCUGCA | 0.515 |
| GCAGGAAGUAAAAACAAAAGGAAAUGCUUCGGAUAGUGGCAGGGGUGGGGGUUGCUAAGGAAAGGGUGGGAUGGGAGUGGGUAAAGAGUU | 0.248 |
| GAUCUCCGGGCUCAGUUGCAGAUUCUGGCCAACAUGGACAGCCAGCUAAAAGAGCUACAGAGUCAGCAUACCCAUUGUGCCCAGGACCUG | -1.34 |
| UGGCCCUGGUGGCAUGCGGGGAGGAAGAGGUGGCCUCAUGGAUCGUGGUGGUCCCGGUGGAAUGUUCAGAGGUGGCCGUGGUGGAGACAG | -0.237 |
| CAAGUCCUGUGCUACACAUCGUAUGUACCGAAUCGGGUUUGGUUUGGGGUUUGGGAAAGUAUUAUGUUACGCCGUUCGGAUCUGCACUUC | 0.564 |
| UCAAGUCCUGUGCUACACAUCGUAUGUACCGAAUCGGGUGGGAGGGAAAAAGGGAAAGUAUUAUGUUACGCCGUUCGGAUCUGCACUUCC | 0.985 |
| CCUCAAGUCCUGUGCUACACAUCGUAUGUACCGAAUCGUGUGUGUGUGUGUGUAAAGUAUUAUGUUACGCCGUUCGGAUCUGCACUUCCA | 0.0742 |
| CUCAAGUCCUGUGCUACACAUCGUAUGUACCGAAUCGGGGUGGGGUGGGGUGGAAAGUAUUAUGUUACGCCGUUCGGAUCUGCACUUCCA | 1.02 |
| CACAGACAACACGCACCCACACAGACACAGAGGGAAGGGGUUGGGAUGUGGACAGGGUGCACAGCAGGGCGGGGUAGGACCCCAGCCCCU | 0.921 |
| UAACUUUAGAGGAGGAUCUGAUGGAUAUGGCAGUGGACGUGGAUUUGGGGAUGGCUAUAAUGGGGAUGGAGGAGGACCUGGAGGUGGCAA | 0.348 |
| GCAGGAGGUAAAAACAAAUGGAAAUGCUUCGGAUAGUGGCAGGGGUGGGGGUUGCUAAGGAAAGGGUGGGAUGGGAGUGGGUAAAGAGUU | 0.147 |
| CCUCAAGUCCUGUGCUACACAUCGUAUGUACCGAAUCGGGCGGGCGGGCGGGAAAGUAUUAUGUUACGCCGUUCGGAUCUGCACUUCCAG | 1.09 |
| ACAGGAAGUAAAAACAAAUGGAAAUGCUUCGGAUAGUGGCAGGGGUGGGGGUUGCUAAGGAAAGGGUGGGAUGGGAGUGGGUAAAGAGUU | -0.116 |
| UCCUGUGCUACACAUCGUAUGUACCGAAUCGGGUUUUUGGGGUUUUUGGGGUUUUUGGGAAAGUAUUAUGUUACGCCGUUCGGAUCUGCA | 0.496 |

Series 3 — method: RNA Bind-n-Seq; form: RNA; sample: in vitro; tested at: 365 nM; relative to: no-protein control; direction: higher = stronger binding
Target: RNA binding protein fox-1 homolog 2, RRM domain, GST-SBP tag (RBFOX2, Homo sapiens, UniProt O43251-10, residues 100-194)
Setting: natural RNA segment, single round, ends assumed
Constant ends, left off below: GGGAGUUCUACAGUCCGACGAUC … UGGAAUUCUCGGGUGCCAA
Residues (chain): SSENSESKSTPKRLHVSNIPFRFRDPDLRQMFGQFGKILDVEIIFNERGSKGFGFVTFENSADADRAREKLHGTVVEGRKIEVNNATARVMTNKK
| Strand | RBNS enrichment (R) |
| --- | --- |
| AAUAGGAGUUACCCAUCAGGUUUCUCUUGGGAUUUUGUAAAUGGAGAGGACAGUUCUUAGUCCAAUAAAAAUAUGCAGAUUGUAUGUAAUGAAAUUUUGUAAGCACAGGU | 1.31 |
| CUGGACUUCGCCCCCAGGCCUAGGACCGCGGUGGGUGGAACCCUGCUACUGCCCCAACAGGGACUCCAAUCAAUCGGAGUUCUCCCCUUGCCGGAGCUGCCCUUCACCUU | 0.336 |
| GUGCAGAGGUCUCCAGUGCCGAGCACAGGCACCUGCCAUCAGUAGUUCCUGUGUCAUCUUCACAUCUAGCAGAGCACGGAUGUGUUUGCAUGCUGUGCUCUUGGAGCUUG | 0.458 |
| GCUAGAACCCUAGGGUCCCUGCUGAGUUCCACAGGGGUGGCCAUCACACACCUGUAUCCCUGGUAUCUAAGGCCUGUCCUCUAGUGCGAUUGUCAUCUCCAGGACUAUGA | 0.211 |
| GAACUGUAAAUCUGUUGCCCAAUCUUAACAUUUUUGAGCUGCAUUUAAGUAGACUUUGGACCGUUAAGCUGGGCAAAGGAAAUGACAAGGGGACGGGGUCUGUGAGAGUC | 0.464 |
| AGAUAACUCACUAAGGGGUAAAAUAUGAAAUAUCAAAUCCUAAAAAGGAUAUUUAUAAUUAAAACAGCCUGUCAUGAGGCAACUGUGAGUGGAACAUCUGGGAAUUUGAG | 0.442 |
| UUUGUCAGGAUAACGUCAUAUAGCAUCUUGUUUGUUUUUCCUUAUCUCUAUGUACAUAUCUAUCUACUUCUGACUGUAGAUGGGUAUAUAGAUAGAUGCCAAGCUUCUUA | 1.87 |
| CAGCUGUGUGUUGUGCCCAAAAAUUUGGUUACCGGAAGGCAUUGCAAAGGAGCGUCUCUGGCAGUCAAGAUAAAAAAACAGUUUCUAUUGUAUUUUGUGGAACUGUAUCU | 0.348 |
| AAUUAUAGGCUGUGGGCAGAGGGUCUGAAAGGUGGGCUUUGGGGUAGUGCCCAAGCCUGGUCGUGUUGCCAGGAGUGGUGACAAGAAAUGCAGCUUACAUCAAACGAACA | 0.546 |
| AGUUUACCGUAACUUUUCUUAAACUUUUUAGUGCCGUUUCUAGUAUAUUCCUGUAAAUGUCAGUUACUGAAAAUGAGUCCAAUGUAAGUAGUUUAGCUUGUUUAUUGCAA | 1.52 |
| UGCUUCCCUAAAUUACUUUUUUAGAGCCCAAACCCCAGGUUUAGGGUGAGGGUUUGUAAUACAAAGAAACACUUCCAUCACUUCUGCCCUUAACCCUUGCCUCUAUUACC | 0.473 |
| GGCAGAGGCUGCAGUGAGCCGAGAUGGCACCACUGCACUCCAGCUUGUUGACAGAAUGAGACCCUGUGGAAAAAAAAAAAAAAGCCCUCCCAUGCCAGAACAGAGGAUGG | 0.994 |

Series 4 — method: universal PBM; form: double-stranded DNA, one strand shown; sample: in vitro; tested at: not given; direction: higher = stronger binding
Target: Sal-like protein 4, full length isoform B (SALL4, Homo sapiens, UniProt Q9UJQ4-2, residues 1-616)
Setting: 8-mer, flanks averaged, mean of replicates
Target sequence (chain): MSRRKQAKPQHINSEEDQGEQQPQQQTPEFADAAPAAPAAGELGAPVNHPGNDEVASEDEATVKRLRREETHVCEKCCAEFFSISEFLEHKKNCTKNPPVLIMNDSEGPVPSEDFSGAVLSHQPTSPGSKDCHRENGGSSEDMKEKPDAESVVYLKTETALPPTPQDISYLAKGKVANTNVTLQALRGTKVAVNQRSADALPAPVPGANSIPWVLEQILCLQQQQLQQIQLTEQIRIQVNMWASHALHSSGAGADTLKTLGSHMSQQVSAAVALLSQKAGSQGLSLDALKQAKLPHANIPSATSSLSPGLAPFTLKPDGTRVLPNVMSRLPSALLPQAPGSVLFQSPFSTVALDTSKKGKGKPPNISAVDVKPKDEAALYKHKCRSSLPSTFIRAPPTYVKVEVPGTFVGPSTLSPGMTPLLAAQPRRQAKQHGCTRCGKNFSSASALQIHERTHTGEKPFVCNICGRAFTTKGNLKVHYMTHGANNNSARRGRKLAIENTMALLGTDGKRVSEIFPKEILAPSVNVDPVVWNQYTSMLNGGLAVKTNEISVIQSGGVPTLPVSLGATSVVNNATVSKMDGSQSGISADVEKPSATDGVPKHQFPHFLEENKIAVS
| Strand | E-score |
| --- | --- |
| GTGAGCCA | -0.00706 |
| ACATTTGC | 0.0991 |
| AGGTCGAA | -0.0604 |
| AGCTTGAG | -0.254 |
| CCCGCCAA | -0.0804 |
| GTGACGGA | -0.121 |
| CATAGTAC | 0.017 |
| AGATGCAC | -0.116 |
| CCTCTGAC | -0.12 |
| CGGAAGAA | -0.0712 |
| CGTGTCGC | -0.103 |
| ATGCAGGG | -0.234 |
| ACGGAATC | -0.013 |
| ACACCTTA | 0.0797 |
| ACGCACTA | -0.0137 |
| CGCGTTTC | -0.254 |
| AAAACGGA | -0.0265 |
| CCATTCTA | 0.0837 |

For quick reference, copied from above (series 1):
| Strand | bound/input enrichment |
| --- | --- |
| GAAUUGGGUGACCACGUGACCAACUUGCGCAAGAUGGGAGCGCCCGAAUCUGGCUUGGCGGAAUAUCUCUUUGACAAGCACACCCUGGGAGACAGUGAUAAUGAAAGCUAAGCCUCGGGC | 0.108 ratio |
| AGAGGAACCGUGCAGGCCUUAGCGUGAGUGAUCACUUUAGAUCUUGGGAACCUGGUGGCCAUACUCCUUCAGGUGGAUCAACAGGCACACGACAUGGGAAAGAAGACCAAGAGGACAGCC | 0.259 ratio |
| GGAUGAAUGAGCAGAUAAAUAUUGAUGUCAGCAUCCUUGAACCAUAUCAAAGUGAGCAGUGUUUGGCUACUGCUUCUAUUUGAAAUGGUGCUGUGUUUUGGUUGUGGUCUGAAGCUUUGA | 0.388 ratio |
| AGCAAGUUUUACAGCUUUAAUGCUCUGGCUUUCUUUACUUUCUCAUGAUUACAGCUUUGUAUGUUACUCUUAUUUAACAGGACCUCUGUUGUAUUGAUUUCUUCUGUAUCUUCCUUUUGA | 0.286 ratio |
